Published values gathered from unrelated publications.
Each line is one published result; not all experiments were run side by side. “And” joins repeats or separate records; there may be more than shown. ± gives the spread as reported.

CCC(C(=O)Nc1sc(C(N)=O)c(C)c1C(=O)OC)c1ccc(F)cc1 (stereo not shown) has a total recovery of 9.1% (human, cadaver skin; topical, dose not given, 24 h).
For CC1(C)C(C=C(Cl)Cl)C1C(=O)OC(C#N)c1ccc(F)c(Oc2ccccc2)c1 (stereo not shown), “enzyme contribution to clearance” read 0.84% (item: CYP3A4; human, age 6 months, recombinant human CYP3A4; 0.1 µM).
For CO[C@H]1C[C@@H]2CC[C@@H](C)[C@@](O)(O2)C(=O)C(=O)N2CCCC[C@H]2C(=O)O[C@H]([C@H](C)C[C@@H]2CC[C@@H](OC(=O)NCCOCCOCCOCCOCCOCCOCCOCCOCCC(=O)N3CCc4cc(Cn5nc(-c6ccc7oc(N)nc7c6)c6c(N)ncnc65)ccc4C3)[C@H](OC)C2)C[C@@H](O)[C@H](C)/C=C(\C)[C@@H](O)[C@@H](OC)C(=O)[C@H](C)C[C@H](C)/C=C/C=C/C=C/1C, the constipation incidence was 0% (patients with advanced solid tumours; intravenous, 6 mg weekly, grade 3 or higher).
For CCN1CCN(Cc2ccc(Nc3ncc(F)c(-c4cc(F)c5nc6n(c5c4)[C@H](C)CCC6)n3)nc2)CC1, “creatinine renal clearance decreased” read 4.2% (Phase Ia dose escalation; patients with advanced solid tumours; dose not given, monotherapy, grade ≥3).
[O-][S+]1CCc2nc(N3CCC(c4ncc(Cl)cn4)CC3)nc(NC3(CO)CCC3)c21 (stereo not shown) gave an aspartate aminotransferase of 14.4 U/L (item: mean; idiopathic pulmonary fibrosis patients, blood; 18 mg twice daily, at last treatment).
COc1cc2c(Oc3ccc4[nH]c(C)cc4c3F)ccnc2cc1OCC1(N)CC1: “grade 1 or 2 Anorexia” 18.2% (paediatric recurrent refractory sarcoma; 12 mg).
CCc1ccc(CC/C=C/c2ccc3c(c2)C(=O)CC3)cc1 has a TG of 0.36 mM (Sprague-Dawley rat, male; oral, 450 mg/kg/day, 14 days).
O=C(O)C(F)(F)C(F)(F)C(F)(F)C(F)(F)C(F)(F)C(F)(F)C(F)(F)F: “pKa shift vs literature” 0.5 to 1 pKa units (19F NMR chemical shift titration; lower pKa than literature).
For CCCCCOc1ccc(-c2ccc(-c3ccc(C(=O)N[C@H]4C[C@@H](O)[C@@H](OCC[N+](C)(C)C)NC(=O)[C@@H]5[C@@H](O)[C@@H](C)CN5C(=O)[C@H]([C@@H](C)O)NC(=O)[C@H]([C@H](O)[C@@H](O)c5ccc(O)cc5)NC(=O)[C@@H]5C[C@@H](O)CN5C(=O)[C@H]([C@@H](C)O)NC4=O)cc3)cc2)cc1, the alanine aminotransferase was 25.5 U/L (adult ICU patients, mITT, serum; dose not given, Baseline).
With Clc1ccc(-c2ccccc2)cc1 the albumin was 3 ± 0.3 g/dL (Sprague-Dawley rats, female, serum; inhalation, 23 µg/rat, 4 h after exposure).
Under “febrile neutropenia incidence”, Cn1ncc(-c2nc(N[C@H]3CC[C@H](N)CC3)ncc2Cl)c1CC1CC1 is recorded as 11% (phase I dose escalation; human patients; dose not given, any-grade TEAE; baseline: patients).
With CCC[C@H]1CC[C@H](c2ccc(-c3ccc(F)cc3)cc2)CC1 the placental accumulation was 1.12 ± 3.37 ng/g (rat, placenta; 10 ng/mL in perfusate, low dose, mixture of 21 LCMs).
O=C(O)CCCOc1ccc(F)cc1-c1cc(-c2ccccc2C(F)(F)F)n(-c2ccccc2)n1: “serum protein fraction” 15.4 ± 1.6% (item: β-glb; Crl:CD(SD) rats, male, serum; iv, 25 µg/kg, 14 days).
C[C@]1(CO)Cc2ncn(-c3ccc(C#N)c(Cl)c3)c2C(=O)O1 — result for “subjects with drug-related dysgeusia”: 0% (human; 40 mg single dose).
CN1CCN(S(=O)(=O)c2cc([N+](=O)[O-])ccc2N(CCOS(C)(=O)=O)CCOS(C)(=O)=O)CC1 gave a concentration of 0.8 µM (NSG mice female, plasma; intraperitoneal, 25 mg/kg, 0.75 h).
For O=C(Nc1ccc2c(c1)B(O)OC2)c1ccc(OCc2ccc(Cl)cc2)cc1, the donor concentration was 164 ± 16.8 µM (PAMPA; pre-coated trilayer membrane; 200 µM, 5 h, pH 7.4, donor plate, PBS).
With c1ccc2c(c1)ccc1c3ccccc3ccc21 the Km was 0.055 µM and < 0.1 µM (metabolism; pooled human liver microsomes; pH 7.4).
Under “change in Suspicious score”, O=C(Nc1ccccc1)C1CCN(C(=O)Oc2cccnc2)CC1 is recorded as 0.2 (psychotropic effects VAS; healthy women; 100 mg; baseline: pre-dose baseline, direction not given).
For COc1ccc(CCC2CCCC(CCc3ccc(OC)cc3)N2C[C@@H](O)CO)cc1.Cl (stereo in doubt), “action potential amplitude change” read 2.4 ± 3.8 mV (rabbit Purkinje fibres; 0.03 µM, cycle length 0.5 s; baseline: baseline).
Under “EEG spike rate”, O=C(c1ccc(C#Cc2cccc(F)c2)nc1)N1CCC(O)CC1 is recorded as “no effect” (video-EEG; Sprague-Dawley rat; intraperitoneal, 56.6 mg/kg; baseline: vehicle).
CC(C)(C)c1cc(-n2nc3ccccc3n2)c(O)c(C(C)(C)C)c1: “daily dermal exposure dose” 7.48 ng/kg/day (human aged 1-2 years; concentration not given, sunscreen, 95th percentile).
CC(C)(O)c1cc(Nc2cc(Oc3cn(C4CC4)nc3C3CCOCC3)ccn2)ccn1 — result for “treatment-emergent adverse events”: 10% (Diarrhea; advanced cancer patients, grade 4 glioma expansion; oral, 50 mg twice daily, all causality any grade).
CC(C)[C@@H]1NC(=O)CNC(=O)[C@H](CC(N)=O)NC(=O)[C@H](CCCNC(=N)N)NC(=O)[C@H](Cc2ccc(O)cc2)NC(=O)[C@H](C(C)C)NC(=O)[C@@H](NC(=O)[C@@H](NC(=O)[C@H](CC(N)=O)NC(=O)[C@H](Cc2c[nH]c3ccccc23)NC(=O)[C@H](C)NC(=O)[C@H](Cc2ccccc2)NC(=O)CN)C(C)C)CSSC[C@@H](C(=O)N[C@@H](Cc2cnc[nH]2)C(=O)N[C@@H](CCCNC(=N)N)C(=O)N[C@@H](CCCNC(=N)N)C(=O)N[C@@H](C)C(=O)N[C@@H](CC(N)=O)C(N)=O)NC(=O)[C@H](C(C)C)NC(=O)[C@H](CCCNC(=N)N)NC1=O has a plateletcrit of 0.02 ± 0.01% (ICR mice, blood; intraperitoneal, 5 mg/kg, day 5).
Under “patients with TEAE”, O=C1Nc2cc3[nH]nc(-c4ccncc4)c3cc2CN1Cc1ccccc1 is recorded as 15% (item: Headache; patients with advanced solid tumours; intravenous, dose not given, all schedules).
For COc1ncccc1-c1cnn2ccc(N3CCN(C(=O)OC(C)C)CC3)nc12, the drug concentration was 16 µM (rat, STZ model, plasma; oral, 30 mg/kg, 240 min).
O=S(=O)(Nc1ccccc1)c1ccc(NC(=S)Nc2ccccc2)cc1 — result for “blood cell fraction”: 74.6% (item: LY%; male mouse, blood; oral, 80 mg/kg daily, 14 days).
CC[C@H](C)[C@H](NC(=O)[C@H](Cc1ccccc1)NC(=O)[C@H](CCC(=O)O)NC(=O)[C@H](CCCNC(=N)N)NC(=O)[C@H](C)NC(=O)[C@H](C)NC(=O)[C@H](CCC(N)=O)NC(=O)[C@H](CCC(=O)O)NC(=O)[C@H](CCC(=O)O)NC(=O)[C@H](CC(C)C)NC(=O)[C@H](Cc1ccc(O)cc1)NC(=O)[C@H](CO)NC(=O)[C@H](CO)NC(=O)[C@@H](NC(=O)[C@H](CC(=O)O)NC(=O)[C@H](CO)NC(=O)[C@@H](NC(=O)[C@H](Cc1ccccc1)NC(=O)[C@@H](NC(=O)CNC(=O)[C@H](CCC(=O)O)NC(=O)[C@H](C)NC(=O)CCc1cnc[nH]1)[C@@H](C)O)[C@@H](C)O)C(C)C)C(=O)N[C@@H](C)C(=O)N[C@@H](Cc1c[nH]c2ccccc12)C(=O)N[C@@H](CC(C)C)C(=O)N[C@H](C(=O)N[C@@H](CCCNC(=N)N)C(=O)NCC(=O)N[C@@H](CCCNC(=N)N)C(=O)N[C@@H](CCCCNC(=O)COCCOCCNC(=O)COCCOCCNC(=O)CC[C@H](NC(=O)CCCCCCCCCCCCCCCCC(=O)O)C(=O)O)C(=O)NCC(=O)NCC(=O)N[C@@H](CO)C(=O)N[C@@H](CCCCNC(=O)[C@H](CCCCNc1c(NCCCCCN(O)C(=O)CCC(=O)NCCCCCN(O)C(=O)CCC(=O)NCCCCCN(O)C(C)=O)c(=O)c1=O)Nc1c(NCCCCCN(O)C(=O)CCC(=O)NCCCCCN(O)C(=O)CCC(=O)NCCCCCN(O)C(C)=O)c(=O)c1=O)C(=O)O)C(C)C [zirconium-89 labelled] gave a tissue uptake of 7.57 %ID/g (ex vivo gamma counting; male Sprague-Dawley rats, kidney; intravenous, 1 nmol, 24 h).
Cn1cc(-c2nc(N[C@@H]3CCCC[C@@H]3N)c(F)c3c2C(=O)NC3)cn1: “hemorrhagic adverse events” 33% (item: Hematuria; patients with relapsed or refractory AML; oral, 80 mg twice daily).
For COc1ccc2nc3cc(Cl)ccc3c(Nc3cc(CN4CCCC4)c(O)c(CN4CCCC4)c3)c2n1, “red cell distribution width (CV)” read 13.4% (mouse, blood; intraperitoneal, 14 mg/kg).
Nc1nc2cc(-c3ccc4ncc(C(=O)N5CCOCC5)n4c3)ccc2o1: “patients with adverse events” 4% (item: Nausea, any cause, grade ≥3; patients with advanced solid tumours; dose not given).
C[C@@H]1COCCN1c1cc(-c2ccnn2C)c2ccnc(-c3ccn[nH]3)c2n1: “white blood cell count” “no effect” (female BALB/c mice; dose not given, 48 h, added: total body irradiation 6 Gy; baseline: irradiation alone).
With CN(C)CCCN1c2ccccc2Sc2ccc(Cl)cc21 the fu,mic was 0.139 (human liver microsomes 0.5 mg/mL; 5 µM, 24 h).
With N.N.[Cl][Pt][Cl] the ALT was 53 ± 14 U/L (nude mice, serum; dose not given, 10 days).
C1=Cc2nc1cc1ccc([n-]1)c(-c1ccccc1)c1nc(cc3ccc([n-]3)c2-c2ccccc2)C=C1.CC(=O)[O-].[Mn+3] has a plasma concentration of 0.078 µg/mL and 0.051 µg/mL (LC-MS/MS; Sprague-Dawley rat, plasma; oral gavage, dose not given, 120 min).
